Assay results gathered from unrelated publications.
Compare with care: the assays were run in different laboratories. ± gives the spread as reported.
OPRM1: Mu-type opioid receptor (OPRM1, Homo sapiens, UniProt P35372)
ACHE: Acetylcholinesterase (ACHE, Homo sapiens, UniProt P22303)

Sequences of proteins named here, by UniProt entry; tags and fusion partners are left off. Residues count along the entry.
UniProt P35372, whole entry: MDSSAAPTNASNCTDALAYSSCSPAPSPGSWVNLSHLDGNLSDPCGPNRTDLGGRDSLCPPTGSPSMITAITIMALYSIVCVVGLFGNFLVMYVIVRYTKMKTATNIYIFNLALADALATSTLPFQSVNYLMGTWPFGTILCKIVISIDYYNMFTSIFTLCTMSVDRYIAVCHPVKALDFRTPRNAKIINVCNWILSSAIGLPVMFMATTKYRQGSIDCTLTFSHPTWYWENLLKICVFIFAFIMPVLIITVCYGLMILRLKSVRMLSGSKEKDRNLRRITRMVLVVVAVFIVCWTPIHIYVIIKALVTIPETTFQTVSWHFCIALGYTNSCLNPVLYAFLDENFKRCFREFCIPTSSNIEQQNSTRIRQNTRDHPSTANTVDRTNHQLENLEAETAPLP
UniProt P22303, whole entry, looked up: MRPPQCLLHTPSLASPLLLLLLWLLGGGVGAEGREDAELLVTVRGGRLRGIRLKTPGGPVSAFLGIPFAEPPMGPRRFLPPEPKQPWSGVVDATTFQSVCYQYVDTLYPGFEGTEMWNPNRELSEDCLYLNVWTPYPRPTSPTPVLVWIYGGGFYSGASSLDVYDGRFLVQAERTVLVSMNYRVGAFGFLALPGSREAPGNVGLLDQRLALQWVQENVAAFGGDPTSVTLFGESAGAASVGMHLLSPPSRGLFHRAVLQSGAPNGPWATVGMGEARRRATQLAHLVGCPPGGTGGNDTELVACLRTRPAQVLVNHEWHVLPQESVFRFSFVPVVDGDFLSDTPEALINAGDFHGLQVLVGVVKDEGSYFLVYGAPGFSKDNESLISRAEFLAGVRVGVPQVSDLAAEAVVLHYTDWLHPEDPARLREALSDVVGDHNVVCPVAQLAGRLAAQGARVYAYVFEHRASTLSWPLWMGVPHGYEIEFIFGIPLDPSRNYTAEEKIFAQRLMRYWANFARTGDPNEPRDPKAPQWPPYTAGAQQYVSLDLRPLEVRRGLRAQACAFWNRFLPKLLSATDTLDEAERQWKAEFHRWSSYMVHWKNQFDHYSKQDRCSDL
UniProt P35462, whole entry: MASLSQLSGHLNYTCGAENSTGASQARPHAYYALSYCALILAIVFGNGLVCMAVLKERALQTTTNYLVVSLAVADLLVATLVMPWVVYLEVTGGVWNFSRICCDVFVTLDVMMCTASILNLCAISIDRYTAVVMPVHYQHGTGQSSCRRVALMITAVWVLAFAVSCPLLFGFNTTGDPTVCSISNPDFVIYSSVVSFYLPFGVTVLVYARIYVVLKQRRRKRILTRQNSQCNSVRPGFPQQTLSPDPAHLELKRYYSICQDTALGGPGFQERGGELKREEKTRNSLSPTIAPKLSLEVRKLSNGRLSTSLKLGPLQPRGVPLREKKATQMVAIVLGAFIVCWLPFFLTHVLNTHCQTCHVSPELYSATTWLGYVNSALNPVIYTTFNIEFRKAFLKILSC
UniProt Q9NR20, whole entry: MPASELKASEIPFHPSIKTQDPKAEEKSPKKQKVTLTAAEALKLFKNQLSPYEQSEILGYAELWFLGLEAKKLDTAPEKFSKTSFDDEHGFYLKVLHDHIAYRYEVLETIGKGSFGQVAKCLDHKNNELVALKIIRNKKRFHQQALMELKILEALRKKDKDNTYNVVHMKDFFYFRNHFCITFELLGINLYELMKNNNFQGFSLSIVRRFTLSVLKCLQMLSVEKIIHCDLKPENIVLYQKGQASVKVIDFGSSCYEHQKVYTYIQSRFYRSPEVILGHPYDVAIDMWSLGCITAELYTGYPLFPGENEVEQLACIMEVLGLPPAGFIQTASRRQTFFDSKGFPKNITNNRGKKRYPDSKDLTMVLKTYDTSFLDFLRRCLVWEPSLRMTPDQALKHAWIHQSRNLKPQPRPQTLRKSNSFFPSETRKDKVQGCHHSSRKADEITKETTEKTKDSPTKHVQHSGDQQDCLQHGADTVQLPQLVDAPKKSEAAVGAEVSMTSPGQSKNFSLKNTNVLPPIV
UniProt Q05941, 23-502 limits assumed: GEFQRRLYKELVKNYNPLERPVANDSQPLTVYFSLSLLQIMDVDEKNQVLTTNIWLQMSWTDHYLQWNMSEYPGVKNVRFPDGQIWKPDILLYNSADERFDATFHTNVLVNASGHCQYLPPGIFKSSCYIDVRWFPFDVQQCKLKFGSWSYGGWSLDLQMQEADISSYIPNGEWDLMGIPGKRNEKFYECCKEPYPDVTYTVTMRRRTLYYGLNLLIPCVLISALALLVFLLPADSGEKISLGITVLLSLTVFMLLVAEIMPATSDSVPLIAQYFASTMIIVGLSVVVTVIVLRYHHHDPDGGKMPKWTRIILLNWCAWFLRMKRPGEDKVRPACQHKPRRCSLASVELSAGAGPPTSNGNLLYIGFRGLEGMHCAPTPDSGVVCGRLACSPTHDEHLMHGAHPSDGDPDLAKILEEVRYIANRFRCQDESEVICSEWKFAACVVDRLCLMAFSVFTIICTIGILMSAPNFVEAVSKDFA
UniProt Q93009, whole entry: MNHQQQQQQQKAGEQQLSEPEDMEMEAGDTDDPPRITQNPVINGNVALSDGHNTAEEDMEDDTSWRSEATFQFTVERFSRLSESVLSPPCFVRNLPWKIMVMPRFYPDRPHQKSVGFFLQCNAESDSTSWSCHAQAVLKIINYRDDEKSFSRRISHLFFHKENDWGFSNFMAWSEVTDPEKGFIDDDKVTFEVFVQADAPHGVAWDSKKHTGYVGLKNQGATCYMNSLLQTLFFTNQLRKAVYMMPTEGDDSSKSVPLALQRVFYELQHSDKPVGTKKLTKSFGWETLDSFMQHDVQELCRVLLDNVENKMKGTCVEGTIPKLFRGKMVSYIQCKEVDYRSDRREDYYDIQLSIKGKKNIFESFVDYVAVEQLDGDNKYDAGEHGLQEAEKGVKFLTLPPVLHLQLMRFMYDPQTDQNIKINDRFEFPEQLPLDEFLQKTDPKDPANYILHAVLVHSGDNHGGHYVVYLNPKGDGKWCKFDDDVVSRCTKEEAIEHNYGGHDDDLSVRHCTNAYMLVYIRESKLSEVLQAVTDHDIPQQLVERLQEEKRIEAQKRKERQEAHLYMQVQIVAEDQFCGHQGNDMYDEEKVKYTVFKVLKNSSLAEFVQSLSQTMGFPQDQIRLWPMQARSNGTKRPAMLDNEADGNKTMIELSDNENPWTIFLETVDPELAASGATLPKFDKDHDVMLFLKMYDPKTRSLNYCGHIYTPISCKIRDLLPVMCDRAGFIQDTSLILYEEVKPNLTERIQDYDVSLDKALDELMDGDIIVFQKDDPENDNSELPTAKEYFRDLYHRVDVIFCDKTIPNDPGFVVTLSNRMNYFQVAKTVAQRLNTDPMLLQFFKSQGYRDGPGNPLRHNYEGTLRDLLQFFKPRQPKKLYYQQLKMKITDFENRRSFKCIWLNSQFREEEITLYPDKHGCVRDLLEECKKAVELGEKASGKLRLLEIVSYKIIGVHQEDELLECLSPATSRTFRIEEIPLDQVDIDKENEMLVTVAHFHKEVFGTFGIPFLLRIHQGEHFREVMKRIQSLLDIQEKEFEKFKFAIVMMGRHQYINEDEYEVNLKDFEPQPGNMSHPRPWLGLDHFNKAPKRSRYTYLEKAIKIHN
UniProt P42680, whole entry: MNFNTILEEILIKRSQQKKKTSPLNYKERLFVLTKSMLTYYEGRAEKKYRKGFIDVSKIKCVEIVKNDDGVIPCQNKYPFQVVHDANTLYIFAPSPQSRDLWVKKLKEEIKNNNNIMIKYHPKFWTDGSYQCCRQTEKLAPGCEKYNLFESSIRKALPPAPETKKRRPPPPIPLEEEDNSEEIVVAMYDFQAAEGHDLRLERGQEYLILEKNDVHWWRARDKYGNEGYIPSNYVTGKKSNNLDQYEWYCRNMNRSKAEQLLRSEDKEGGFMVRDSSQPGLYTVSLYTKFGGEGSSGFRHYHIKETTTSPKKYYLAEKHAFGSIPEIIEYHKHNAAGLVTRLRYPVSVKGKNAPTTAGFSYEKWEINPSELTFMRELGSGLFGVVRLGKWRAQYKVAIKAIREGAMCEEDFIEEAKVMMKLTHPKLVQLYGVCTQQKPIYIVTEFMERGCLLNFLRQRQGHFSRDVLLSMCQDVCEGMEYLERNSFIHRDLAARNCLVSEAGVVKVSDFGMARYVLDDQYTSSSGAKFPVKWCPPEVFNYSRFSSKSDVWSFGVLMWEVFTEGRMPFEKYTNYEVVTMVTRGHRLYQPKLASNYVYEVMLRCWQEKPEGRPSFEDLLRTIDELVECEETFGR

CC(C)[C@H]1CC[C@@H](N2CCC(n3c(CO)cc4ccccc43)CC2)CC1 — inhibition (DRD3 (Homo sapiens, UniProt P35462); radioligand binding; 10 µM): 100%
CSCC[C@@H]1NC(=O)[C@H](CC(C)C)NC(=O)[C@H](CCCNC(=N)N)NC(=O)[C@H](CO)NC(=O)[C@@H]2CSSC[C@@H]3NC(=O)[C@H](CO)NC(=O)CNC(=O)[C@H]([C@@H](C)O)NC(=O)[C@H](CSSC[C@H](N)C(=O)N[C@@H](CCCCN)C(=O)NCC(=O)N[C@@H](CCCCN)C(=O)NCC(=O)N[C@@H](C)C(=O)N[C@@H](CCCCN)C(=O)N2)NC(=O)[C@H](CSSC[C@@H](C(N)=O)NC(=O)[C@H](CCCCN)NC(=O)CNC(=O)[C@H](CO)NC(=O)[C@H](CCCNC(=N)N)NC3=O)NC(=O)[C@H](CC(=O)O)NC(=O)[C@H](Cc2ccc(O)cc2)NC1=O — inhibition (Voltage-dependent P/Q-type calcium channel subunit alpha-1A (Homo sapiens, UniProt O00555); antagonist; HEK293; 30 µM): 60%
Cc1ncc(-c2cc(Cl)ccc2F)cc1-n1c(=O)n(CC(N)=O)c2ccccc21 — inhibition (OPRM1; binding, radioligand binding; 10 µM): 47.4%
CCN1CCN(Cc2ccc(NC(=O)c3ccc(C)c(/C=C/c4cnc5[nH]ccc5c4OC)c3)cc2C(F)(F)F)CC1 — log2 fold change (DYRK4 (Homo sapiens, UniProt Q9NR20); inhibitor, cell-based kinome screen; 5 µM; relative to: vehicle): 0.294 log2
CN(CC1CCN(Cc2ccccc2)CC1)C(=O)c1cn(Cc2ccccc2Cl)nn1 — inhibition (Chrna7 (Rattus norvegicus, UniProt Q05941); binding; rat brain membranes; 10 µM, with: radiolabelled α-bungarotoxin): 79.7 ± 1.9%
CCN(CC)Cc1cc(NC(C)=O)ccc1O — inhibition (ACHE; enzyme activity, inhibitor; 1000 µM): 0%
CCn1ccc(-c2cc(-c3cnn(C)c3)cc([C@@H](C)NC(=O)c3cc(OCCN(C)C)ccc3C)c2)n1 — inhibition (USP7 (Homo sapiens, UniProt Q93009); enzyme activity; up to 40 µM, with: Ub-AMC substrate): no inhibition
CCN(CC)Cc1cccc(N)c1 — inhibition (ACHE; enzyme activity, inhibitor; 1000 µM): 0%
CC(Cc1ccccc1)NCCn1cnc2c1c(=O)n(C)c(=O)n2C (centres unmarked) — inhibition (OPRM1; radioligand binding; 10 µM): 7%
CC#C/C(=N\OC[C@H]1COCCN1)c1ccc2ncnc(Nc3ccc(OCc4cccc(F)c4)c(Cl)c3)c2c1 — inhibition (TEC (Homo sapiens, UniProt P42680); kinase activity; 10 µM): 21.1%
CCN(CC)Cc1cc(O)ccc1N — inhibition (ACHE; enzyme activity, inhibitor; 1000 µM): 1%

A few entries again:
CCN(CC)Cc1cc(NC(C)=O)ccc1O — inhibition (ACHE; enzyme activity, inhibitor; 1000 µM): 0%
